Experimental data from different studies.
Protocols differ between the studies behind these lines. ± marks the error that the study gave.
Method: steady-state kinetics
B1: protein (Actinidia deliciosa, UniProt C7SHN9); chain MEPLLFSIQTLVHQVKQEIFSSTFDLYSFVSPSAYDTAWLAMIPHPKQNSCPKFKGCLDWILDNQKEAGYWGECDHDGLPTIDSLPATLACMVALKTWGVSEKHINKGLAFIHANSTTLLKEKYDHLPRWFVIVFPAMVEVAQAAGLKVLFSNGLEEVVLNISLEREKILEREEFVDKYHYPPLASYLEALPPSYTIDRKDITMNLSGDGSCFQSPSATARAFLATGNQKCMAYLESLVQKRPGGVPTMYPMDGELVSLCLVNQIQRLGLAEHFTEEIEENLKLIYENYKNQESREMKDSYLVPTKIYKDSLAFRLLRMHGYNVTPRRFCWFLYQEDIRVHIEKNYECFTSALYNVYRATDLMFSGEYELEEARVFSRKLLEKSMKLKSLNDNLVNFPSFRSVIDHELSVPWIARLEHLDHRMWIEENKVDTLWIGKASFYRLRALNDKLMTLAVESYKFRQSFYRNELEELKRWSKDWGLTDLGFGRKKTTYCYYAIAASSSLPHNSMVRLIVAKSAILVTIADDFFDMEGSLEDLQSLTQAVQRWDGNSLSGHGKIIFCALDNLVSDIAKPHLHLEGSHVAENVKNMWSETIASWLTETTWSHTGYVPSLDEYLQTGKISVASQLMTVPALCFLSPNVHPICKLEANHYQIITKLLMVSTRLLNDTQTYEKELKDGKRNFVILHSKGSPQTGIEKSVAFVKEILDQIEKEFLEHTLMDGHNDLPKPCKHLHLSILRAFHMFYNSGDLFDSDTGLLHDINKAFYVPL
B2: ycjS (Escherichia coli, UniProt P77503); chain MKSAMTSSPLRVAIIGAGQVADKVHASYYCTRNDLELVAVCDSRLSQAQALAEKYGNASVWDDPQAMLLAVKPDVVSVCSPNRFHYEHTLMALEAGCHVMCEKPPAMTPEQAREMCDTARKLGKVLAYDFHHRFALDTQQLREQVTNGVLGEIYVTTARALRRCGVPGWGVFTNKELQGGGPLIDIGIHMLDAAMYVLGFPAVKSVNAHSFQKIGTQKSCGQFGEWDPATYSVEDSLFGTIEFHNGGILWLETSFALNIREQSIMNVSFCGDKAGATLFPAHIYTDNNGELMTLMQREIADDNRHLRSMEAFINHVQGKPVMIADAEQGYIIQQLVAALYQSAETGTRVEL
B3: sacB Y247F (Priestia megaterium, UniProt D5DC07); chain KGNDSKDFNNSYGISHITRDNMVKIPQQQNSDQFKVPAFDESTIKNIASAKGKNASGNTIDLDVWDSWPLQNADGTVATYHGYQIVFALAGDPKDSNDTSVYLFYKKAGDKSIDSWKNAGRVFKDSDKFVPNDPHLKNQTQEWSGSGTLTKDGKVRLFYTDYSGKQYGKQTLTTAQVNMSQPNDNTLKVDGVEDYKSIFDGDGKIYQTVQQFIDEGGFDTGDNHTLRDPHYIEDNGHKYLVFEANTGTEDGYQGEDSLYNRAYYGGNNPFFQSEKKKLLEGSNKEKASLANGALGIIELNDDYTLKKVMKPLITSNTVTDEIERANIFKKDGKWYLFTDSRGSKMTIDGIGQDDVYMLGYVSNTLTGKYKPLNDTGLVLHMDLDPNDKTFTYSHFAVPQTKGDNVVITSYMTNRGFYEDNHSTFAPSFLVNIDGSKTSVVKDRVLEQGQLTVDED
B4: pdh1 (Macropsalliota meleagris, UniProt Q3L245); chain AITYQHPDDLPSGVDYDFIVAGGGTAGLVVASRLSENSNWKVLVIEAGPSNKDAFVTRVPGLASTLGAGSPIDWNYTTIPQDGLDGRSLDYPRAKILGGCSTHNGMVYTRGSKDDWNSWAGIIGDQGLGWDSILPAIKKAEKFTQDFTDQSVKGHIDPSVHGFDGKLSVSAAYSNISFNDLLFETTKELNAEFPFKLDMNDGKPIGLGWTQYTIDNHAERSSSATSYLESTGDNVHVLVNTLVTRVLSASGNGTDFRKVEFAVDANSPKKQLEAKKEVIVAGGVIASPQILMNSGIGERKVLQAVGIDTLIDNPSVGKNLSDQGATSVMFDTTLPSTDFDVDAALTEWTNSHTGPLARGARLNHLTFVRLPDDKLNGQDPSSGKNSPHIEFQFAQITPQVPTLGVPKQAPLPAANSYRLLLQLAVVNLYSISRGSISLSDNNPFTYPLIDLNMFKEDIDIAILREGIRSAGRMFSSKAFKNSVNKFVYPPADATSDEDLDAFLRSSTFSYVHGVGTLSMSPKGASWGVVNPDFKVKGTSGLRVVDASVIPHAPAAHTQLPVYAFAEYASALIAKSYN
B5: c3712 (Escherichia coli, UniProt A0A0H2VDD9); chain SNKIFTHSLPMRYADFPTLVDALDYAALSSAGMNFYDRRCQLEDQLEYQTLKARAEAGAKRLLSLNLKKGDRVALIAETSSEFVEAFFACQYAGLVAVPLAIPMGVGQRDSWSAKLQGLLASCQPAAIITGDEWLPLVNAATHDNPELHVLSHAWFKALPEADVALQRPVPNDIAYLQYTSGSTRFPRGVIITHREVMANLRAISHDGIKLRPGDRCVSWLPFYHDMGLVGFLLTPVATQLSVDYLRTQDFAMRPLQWLKLISKNRGTVSVAPPFGYELCQRRVNEKDLAELDLSCWRVAGIGAEPISAEQLHQFAECFRQVNFDNKTFMPCYGLAENALAVSFSDEASGVVVNEVDRDILEYQGKAVAPGAETRAVSTFVNCGKALPEHGIEIRNEAGMPVAERVVGHICISGPSLMSGYFGDQVSQDEIAATGWLDTGDLGYLLDGYLYVTGRIKDLIIIRGRNIWPQDIEYIAEQEPEIHSGDAIAFVTAQEKIILQIQCRISDEERRGQLIHALAARIQSEFGVTAAIDLLPPHSIPRTSSGKPARAEAKKRYQKAYAASLNVQESLA
B6: POLK W214Y/W392H (Homo sapiens, UniProt Q9UBT6); chain MGLNDNKAGMEGLDKEKINKIIMEATKGSRFYGNELKKEKQVNQRIENMMQQKAQITSQQLRKAQLQVDRFAMELEQSRNLSNTIVHIDMDAFYAAVEMRDNPELKDKPIAVGSMSMLSTSNYHARRFGVRAAMPGFIAKRLCPQLIIVPPNFDKYRAVSKEVKEILADYDPNFMAMSLDEAYLNITKHLEERQNYPEDKRRYFIKMGSSVENDNPGKEVNKLSEHERSISPLLFEESPSDVQPPGDPFQVNFEEQNNPQILQNSVVFGTSAQEVVKEIRFRIEQKTTLTASAGIAPNTMLAKVCSDKNKPNGQYQILPNRQAVMDFIKDLPIRKVSGIGKVTEKMLKALGIITCTELYQQRALLSLLFSETSHHYFLHISLGLGSTHLTRDGERKSMSVERTFSEINKAEEQYSLCQELCSELAQDLQKERLKGRTVTIKLKNVNFEVKTRASTVSSVVSTAEEIFAIAKELLKTEIDADFPHPLRLRLMGVRISSFPNEEDRKHQQ
B7: PduO F112H (Limosilactobacillus reuteri, UniProt Q50EJ2); chain MKIYTKNGDKGQTRIIGKQILYKNDPRVAAYGEVDELNSWVGYTKSLINSHTQVLSNELEEIQQLLFDCGHDLATPADDERHSFKFKQEQPTVWLEEKIDNYTQVVPAVKKHILPGGTQLASALHVARTITRRAERQIVQLMREEQINQDVLIFINRLSDYFFAAARYANYLEQQPDMLYRNSKDVFR
B8: sacB S422A (Priestia megaterium, UniProt D5DC07); chain KGNDSKDFNNSYGISHITRDNMVKIPQQQNSDQFKVPAFDESTIKNIASAKGKNASGNTIDLDVWDSWPLQNADGTVATYHGYQIVFALAGDPKDSNDTSVYLFYKKAGDKSIDSWKNAGRVFKDSDKFVPNDPHLKNQTQEWSGSGTLTKDGKVRLFYTDYSGKQYGKQTLTTAQVNMSQPNDNTLKVDGVEDYKSIFDGDGKIYQTVQQFIDEGGYDTGDNHTLRDPHYIEDNGHKYLVFEANTGTEDGYQGEDSLYNRAYYGGNNPFFQSEKKKLLEGSNKEKASLANGALGIIELNDDYTLKKVMKPLITSNTVTDEIERANIFKKDGKWYLFTDSRGSKMTIDGIGQDDVYMLGYVSNTLTGKYKPLNDTGLVLHMDLDPNDKTFTYAHFAVPQTKGDNVVITSYMTNRGFYEDNHSTFAPSFLVNIDGSKTSVVKDRVLEQGQLTVDED
B9: Saccharopine reductase C154S (Saccharomyces cerevisiae, UniProt P38999); chain MGKNVLLLGSGFVAQPVIDTLAANDDINVTVACRTLANAQALAKPSGSKAISLDVTDDSALDKVLADNDVVISLIPYTFHPNVVKSAIRTKTDVVTSSYISPALRELEPEIVKAGITVMNEIGLDPGIDHLYAVKTIDEVHRAGGKLKSFLSYSGGLPAPEDSDNPLGYKFSWSSRGVLLALRNSAKYWKDGKIETVSSEDLMATAKPYFIYPGYAFVCYPNRDSTLFKDLYHIPEAETVIRGTLRYQGFPEFVKALVDMGMLKDDANEIFSKPIAWNEALKQYLGAKSTSKEDLIASIDSKATWKDDEDRERILSGFAWLGLFSDAKITPRGNALDTLCARLEELMQYEDNERDMVVLQHKFGIEWADGTTETRTSTLVDYGKVGGYSSMAATVGYPVAIATKFVLDGTIKGPGLLAPYSPEINDPIMKELKDKYGIYLKEKTVA
B10: LYS12 D271N (Saccharomyces cerevisiae, UniProt P40495); chain SLTIGLIPGDGIGKEVIPAGKQVLENLNSKHGLSFNFIDLYAGFQTFQETGKALPDETVKVLKEQCQGALFGAVQSPTTKVEGYSSPIVALRREMGLFANVRPVKSVEGEKGKPIDMVIVRENTEDLYIKIEKTYIDKATGTRVADATKRISEIATRRIATIALDIALKRLQTRGQATLTVTHKSNVLSQSDGLFREICKEVYESNKDKYGQIKYNEQIVDSMVYRLFREPQCFDVIVAPNLYGDILSNGAAALVGSLGVVPSANVGPEIVIGEPCHGSAPDIAGKGIANPIATIRSTALMLEFLGHNEAAQDIYKAVDANLREGSIKTPDLGGKASTQQVVDDVLSRL
Chain of UniProt A8NCK5 (whole entry, looked up): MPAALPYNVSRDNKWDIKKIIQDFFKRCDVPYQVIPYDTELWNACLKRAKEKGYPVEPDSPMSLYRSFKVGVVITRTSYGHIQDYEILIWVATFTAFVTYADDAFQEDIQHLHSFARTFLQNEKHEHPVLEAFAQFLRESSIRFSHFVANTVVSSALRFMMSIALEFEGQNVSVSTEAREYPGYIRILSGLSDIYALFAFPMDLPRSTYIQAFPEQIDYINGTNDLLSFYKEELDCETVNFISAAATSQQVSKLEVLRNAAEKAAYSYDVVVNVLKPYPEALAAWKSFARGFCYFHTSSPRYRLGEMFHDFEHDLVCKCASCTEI
Chain of UniProt P07914 (whole entry, looked up): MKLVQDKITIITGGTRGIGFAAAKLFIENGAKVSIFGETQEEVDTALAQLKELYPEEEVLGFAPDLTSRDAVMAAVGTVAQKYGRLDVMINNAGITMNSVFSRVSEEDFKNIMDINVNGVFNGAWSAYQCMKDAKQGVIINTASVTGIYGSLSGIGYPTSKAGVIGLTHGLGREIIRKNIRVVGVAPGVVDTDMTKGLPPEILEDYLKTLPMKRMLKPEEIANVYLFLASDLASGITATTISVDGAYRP
Chain of UniProt Q47KB1 (whole entry, looked up): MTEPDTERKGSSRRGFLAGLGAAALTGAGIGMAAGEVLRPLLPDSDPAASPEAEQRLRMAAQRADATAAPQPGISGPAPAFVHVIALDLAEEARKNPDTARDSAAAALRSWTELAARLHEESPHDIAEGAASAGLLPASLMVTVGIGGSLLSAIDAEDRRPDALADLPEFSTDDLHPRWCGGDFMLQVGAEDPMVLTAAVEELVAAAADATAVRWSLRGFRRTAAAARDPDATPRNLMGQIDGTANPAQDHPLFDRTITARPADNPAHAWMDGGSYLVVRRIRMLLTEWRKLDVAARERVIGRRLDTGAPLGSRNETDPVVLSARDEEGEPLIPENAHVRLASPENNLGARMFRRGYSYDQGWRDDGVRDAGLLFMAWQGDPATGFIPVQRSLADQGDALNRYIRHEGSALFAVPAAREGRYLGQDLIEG
Chain of UniProt P49419 (whole entry, looked up): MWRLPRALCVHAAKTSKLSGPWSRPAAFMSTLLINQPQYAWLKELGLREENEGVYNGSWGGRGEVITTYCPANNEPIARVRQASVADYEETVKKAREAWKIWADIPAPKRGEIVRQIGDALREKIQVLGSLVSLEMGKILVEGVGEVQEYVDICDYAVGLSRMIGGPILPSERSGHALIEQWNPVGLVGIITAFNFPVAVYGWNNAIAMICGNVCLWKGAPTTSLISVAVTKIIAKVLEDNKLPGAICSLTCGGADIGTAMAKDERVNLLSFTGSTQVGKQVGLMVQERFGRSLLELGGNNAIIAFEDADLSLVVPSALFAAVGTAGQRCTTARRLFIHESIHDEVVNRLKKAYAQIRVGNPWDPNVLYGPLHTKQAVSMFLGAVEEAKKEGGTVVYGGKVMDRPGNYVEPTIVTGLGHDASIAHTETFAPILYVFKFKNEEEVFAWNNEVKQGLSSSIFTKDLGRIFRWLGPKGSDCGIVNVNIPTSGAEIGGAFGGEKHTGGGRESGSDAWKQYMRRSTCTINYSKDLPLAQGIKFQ
Chain of UniProt P77212 (whole entry, looked up): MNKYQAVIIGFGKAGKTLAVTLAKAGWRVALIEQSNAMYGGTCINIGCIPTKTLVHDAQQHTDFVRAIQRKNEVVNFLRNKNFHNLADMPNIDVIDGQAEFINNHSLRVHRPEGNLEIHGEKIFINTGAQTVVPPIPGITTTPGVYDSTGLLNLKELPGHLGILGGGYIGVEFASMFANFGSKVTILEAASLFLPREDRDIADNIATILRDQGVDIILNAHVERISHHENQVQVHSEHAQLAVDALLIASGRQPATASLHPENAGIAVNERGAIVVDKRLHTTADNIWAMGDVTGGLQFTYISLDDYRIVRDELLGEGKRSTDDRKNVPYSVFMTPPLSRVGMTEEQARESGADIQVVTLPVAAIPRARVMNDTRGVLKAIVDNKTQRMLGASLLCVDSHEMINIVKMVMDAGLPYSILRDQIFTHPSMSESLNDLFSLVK

B1 (protein)  kcat (CC(C)=CCC/C(C)=C/CC/C(C)=C/CO[P@@](=O)(O)OP(=O)(O)O; pH 7.5, with: FPP 1-100 µM): 0.44 ± 0.046 s⁻¹
B2 (ycjS)  kcat (CO[C@@H]1O[C@H](CO)[C@@H](O)[C@H](O)[C@H]1O; pH 8, 30 °C, with: NAD+ 2.0 mM): 0.4 ± 0.01 s⁻¹
BaiA1 (Clostridium scindens, UniProt P07914)  kcat (C[C@H](CCC(=O)SCCNC(=O)CCNC(=O)[C@H](O)C(C)(C)COP(=O)(O)OP(=O)(O)OC[C@H]1O[C@@H](n2cnc3c(N)ncnc32)[C@H](O)[C@@H]1OP(=O)(O)O)[C@H]1CC[C@H]2[C@@H]3[C@H](O)C[C@@H]4C[C@H](O)CC[C@]4(C)[C@H]3C[C@H](O)[C@]12C; pH 8.7, 37 °C, with: NAD+): 1.23 s⁻¹
B3 (sacB Y247F)  kcat (OC[C@H]1O[C@@](CO)(O[C@H]2O[C@H](CO)[C@@H](O)[C@H](O)[C@H]2O)[C@@H](O)[C@@H]1O; pH 6.9): 254 ± 3.5 s⁻¹
B4 (pdh1)  kcat (CN(C)c1ccc2nc3ccc(N(C)C)c([N+](=O)[O-])c3[s+]c2c1; pH 7.5, 22 °C, apparent): 0.34 ± 0.08 s⁻¹
Cop6 (Coprinopsis cinerea, UniProt A8NCK5)  kcat (CC(C)=CCC/C(C)=C/CC/C(C)=C/CO[P@@](=O)(O)OP(=O)(O)O; pH 8, 30 °C, with: MgCl2 10 mM): 0.67 ± 0.007 s⁻¹
enzyme (Thermobifida fusca, UniProt Q47KB1)  kcat (Nc1c(S(=O)(=O)O)cc(Nc2cccc(S(=O)(=O)CCOS(=O)(=O)O)c2)c2c1C(=O)c1ccccc1C2=O; pH 3.5): 10 s⁻¹
enzyme (Triticum aestivum, UniProt A0A6J4BJG4)  kcat (O=C1[C@@H](O[C@@H]2O[C@H](CO)[C@@H](O)[C@H](O)[C@H]2O)Oc2ccccc2N1O; pH 7.2, 30 °C): 0.508 s⁻¹
B5 (c3712)  kcat (CCCCCCCC(=O)O; pH 7.5, 30 °C): 0.00117 ± 0.000167 s⁻¹
Hpo (Pseudomonas putida, UniProt F8G0M1)  kcat (Oc1ccc(O)nc1; pH 7.5, 20 °C, with: O2; Fe2+ 0.025 mM): 12.9 ± 0.6 s⁻¹
ALDH7A1 (Homo sapiens, UniProt P49419)  kcat (N[C@@H](CCCC=O)C(=O)O; pH 8, 20 °C, with: NAD+ 2.5 mM): 2.18 ± 0.095 s⁻¹
protein (UniProt M4ZR24)  kcat (Cc1cn([C@H]2C[C@H](O)[C@@H](CN)O2)c(=O)[nH]c1=O; phosphorolysis, single substrate, with: phosphate): 0.0517 ± 0.005 s⁻¹
B6 (POLK W214Y/W392H)  kcat (Nc1ccn([C@H]2C[C@H](O)[C@@H](COP(=O)(O)OP(=O)(O)OP(=O)(O)O)O2)c(=O)n1; pH 7.5, 23 °C, MgCl2 5 mM, with: G template): 0.017 ± 0.003 s⁻¹
rclA (Escherichia coli, UniProt P77212)  kcat (N#CSO; pH 7.4, apparent): 180 s⁻¹
B7 (PduO F112H)  kcat (Nc1ncnc2c1ncn2[C@@H]1O[C@H](COP(=O)(O)OP(=O)(O)OP(=O)(O)O)[C@@H](O)[C@H]1O; pH 8, 37 °C, anoxic, with: cob(I)alamin): 0.00038 ± 1e-05 s⁻¹
B8 (sacB S422A)  kcat (OC[C@H]1O[C@@](CO)(O[C@H]2O[C@H](CO)[C@@H](O)[C@H](O)[C@H]2O)[C@@H](O)[C@@H]1O; pH 6.6): 97.9 ± 4 s⁻¹
B9 (Saccharopine reductase C154S)  kcat (N[C@@H](CCC(=O)O)C(=O)O; pH 7, 25 °C, with: NADPH, AASA): 0.27 ± 0.02 s⁻¹
B10 (LYS12 D271N)  kcat (O=C(O)CC[C@H](C(=O)O)[C@@H](O)C(=O)O; pH 7.5, 25 °C, potassium acetate 100 mM, substrate as Mg complex, with: NAD+ varied; Mg2+ 10 mM): 0.026 ± 0.002 s⁻¹
